Results collected from several papers.
Numbered parts are unrelated; each lists some results of a single study. Positions count from the first letter of the parent shown.
Sequence of UniProt P28335 (whole entry, looked up): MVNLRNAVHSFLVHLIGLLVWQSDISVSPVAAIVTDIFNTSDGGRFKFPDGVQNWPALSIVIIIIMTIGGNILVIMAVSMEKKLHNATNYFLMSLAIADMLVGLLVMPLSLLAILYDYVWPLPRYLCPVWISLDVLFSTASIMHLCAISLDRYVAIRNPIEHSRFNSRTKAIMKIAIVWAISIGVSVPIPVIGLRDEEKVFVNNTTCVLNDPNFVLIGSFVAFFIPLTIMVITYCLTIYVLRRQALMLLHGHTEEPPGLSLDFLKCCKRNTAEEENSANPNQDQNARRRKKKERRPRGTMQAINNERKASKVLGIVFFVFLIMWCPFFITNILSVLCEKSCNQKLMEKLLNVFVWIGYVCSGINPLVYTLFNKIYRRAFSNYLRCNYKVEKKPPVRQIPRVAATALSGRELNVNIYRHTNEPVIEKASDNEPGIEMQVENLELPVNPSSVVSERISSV

Study 1
Target: UDP-N-acetylglucosamine--peptide N-acetylglucosaminyltransferase 110 kDa subunit (OGT, Homo sapiens, UniProt O15294)
Sequence of UniProt O15294 (whole entry, looked up): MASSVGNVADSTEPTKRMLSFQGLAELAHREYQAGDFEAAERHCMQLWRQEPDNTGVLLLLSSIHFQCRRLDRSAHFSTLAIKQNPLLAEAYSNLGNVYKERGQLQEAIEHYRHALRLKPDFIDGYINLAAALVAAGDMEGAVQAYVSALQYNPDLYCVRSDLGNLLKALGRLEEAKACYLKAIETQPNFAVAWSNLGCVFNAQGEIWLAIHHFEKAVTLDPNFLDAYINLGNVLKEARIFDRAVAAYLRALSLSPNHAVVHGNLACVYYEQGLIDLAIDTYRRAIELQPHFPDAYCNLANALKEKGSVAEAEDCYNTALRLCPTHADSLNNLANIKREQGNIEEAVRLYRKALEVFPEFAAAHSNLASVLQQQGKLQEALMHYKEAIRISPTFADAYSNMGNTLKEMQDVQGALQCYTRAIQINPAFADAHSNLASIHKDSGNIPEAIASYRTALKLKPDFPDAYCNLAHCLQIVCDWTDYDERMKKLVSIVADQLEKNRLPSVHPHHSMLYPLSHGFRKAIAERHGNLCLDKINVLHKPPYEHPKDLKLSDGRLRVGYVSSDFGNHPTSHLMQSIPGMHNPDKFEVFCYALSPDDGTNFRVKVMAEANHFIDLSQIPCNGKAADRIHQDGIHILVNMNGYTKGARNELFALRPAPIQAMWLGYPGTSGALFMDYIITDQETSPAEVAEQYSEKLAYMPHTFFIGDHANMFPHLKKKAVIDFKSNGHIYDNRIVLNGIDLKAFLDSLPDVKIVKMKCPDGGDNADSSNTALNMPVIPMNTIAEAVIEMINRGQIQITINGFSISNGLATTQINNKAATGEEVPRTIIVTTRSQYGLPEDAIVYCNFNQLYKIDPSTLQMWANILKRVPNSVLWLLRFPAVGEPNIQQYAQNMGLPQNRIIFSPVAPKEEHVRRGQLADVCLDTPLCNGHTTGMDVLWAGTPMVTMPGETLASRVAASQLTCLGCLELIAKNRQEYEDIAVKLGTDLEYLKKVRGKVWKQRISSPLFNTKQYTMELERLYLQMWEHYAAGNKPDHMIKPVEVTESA
Observed: binding
Method: phage display NGS
Molecule type: peptide
Tested at: concentration not given
Notes: normalized abundance
Relative to: input library
| Molecule | enrichment fold change |
| --- | --- |
| HSYHHDSVHAGHNIV | 4.78 |
| TMQHQTHMVNHTWWH | 6.48 |
| TMKHRPATAWGIHHH | 17.5 |
| VLQPYLPEYQIYPNY | 6.38 |
| QLKHTIHHHHTAPRY | 7.7 |
| YGEGYITRHTTYHQH | 4.66 |
| DYKPKYQITAAEAG | 7.23 |
| WQMHHDAYYWDHHLH | 75.2 |

Study 2
Target: CCNA2, cyclin fold, Cln2 fusion (human)
Method: yeast growth competition, sequencing
Matrix: yeast
Notes: strong parent motif
Relative to: not given
Direction: higher = stronger binding
Parent: viral docking peptide; TSVRRALFTGGSD
| Substitution | normalised enrichment score |
| --- | --- |
| TSVRRAFFTGGSD [L7F] | 0.486 |
| TSVWRALFTGGSD [R4W] | 1.79 |
| TSVFRALFTGGSD [R4F] | 1.8 |
| TSVRRALFGGGSD [T9G] | 6.7 |
| TSVRRALRTGGSD [F8R] | 0.157 |
| TSVCRALFTGGSD [R4C] | 4.54 |
| TSPRRALFTGGSD [V3P] | 2.62 |
| TSVRVALFTGGSD [R5V] | 2.24 |

Study 3
Target: tungstate, free oxyanion
Method: microfluidic competitive inhibition
Matrix: in vitro, cell-free expressed
Tested at: not given
Notes: derived from inhibition constants, unchanged parent 2230 nM
Direction: lower = stronger binding
Parent: PafA, mature enzyme, eGFP fusion (Elizabethkingia meningoseptica, UniProt Q9KJX5); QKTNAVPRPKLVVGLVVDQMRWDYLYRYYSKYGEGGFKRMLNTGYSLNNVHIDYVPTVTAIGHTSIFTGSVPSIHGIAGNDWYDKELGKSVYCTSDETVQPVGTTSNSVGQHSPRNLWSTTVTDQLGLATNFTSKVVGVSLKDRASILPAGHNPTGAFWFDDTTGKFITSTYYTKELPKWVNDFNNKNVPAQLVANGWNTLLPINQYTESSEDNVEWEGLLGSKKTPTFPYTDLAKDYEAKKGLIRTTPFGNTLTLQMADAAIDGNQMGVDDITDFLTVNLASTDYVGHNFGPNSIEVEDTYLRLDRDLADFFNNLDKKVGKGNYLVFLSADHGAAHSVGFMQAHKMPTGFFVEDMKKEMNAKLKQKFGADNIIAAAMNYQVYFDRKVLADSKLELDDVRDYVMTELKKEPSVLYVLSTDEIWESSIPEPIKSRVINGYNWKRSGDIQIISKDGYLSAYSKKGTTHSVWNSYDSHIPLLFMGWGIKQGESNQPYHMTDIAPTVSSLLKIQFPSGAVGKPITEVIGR
| Substitution | oxyanion analog dissociation constant |
| --- | --- |
| R27V | 2.16 µM |
| E34G | 2.27 µM |
| L394G | 2.41 µM |
| Q125V | 2.76 µM |
| I427G | 1.15 µM |
| V17A | 2.32 µM |
| S283G | 2.42 µM |
| E97V | 2.31 µM |

Mixed results
| SMILES | target | test | conditions | quantity | value |
| --- | --- | --- | --- | --- | --- |
| C[C@@]1(Cc2ccc(C#N)cc2)C(=O)N(c2cc(Cl)cc(Cl)c2)c2ncc(C(=O)NC3(c4nc(C5CCC5)no4)CC3)n21 | 5-hydroxytryptamine receptor 2C (HTR2C, Homo sapiens, UniProt P28335) | binding, radioligand binding | 10 µM | inhibition | 32.9% |

For quick reference, copied from above (study 3):
| Substitution | oxyanion analog dissociation constant |
| --- | --- |
| L394G | 2.41 µM |
| Q125V | 2.76 µM |
